Experimental data gathered from unrelated publications.
Numbered parts are unrelated; each lists some results of a single study. Changes are numbered by the printed parent chain.

Block 1 — target: CCNE2, cyclin fold, Cln2 fusion (human); method: yeast growth competition, sequencing; medium: yeast; notes: strong parent motif; baseline: not given; direction: higher = stronger binding; endpoint: normalised enrichment score
Parent: NPAT docking peptide (human); PCHRRVLCFDSTT
Change = R4A; value = 1.47
Change = T13A; value = 2.08
Change = V6A; value = 1.33
Change = R5A L7A; value = -0.0826
Change = R5K F9L; value = 0.143
Change = C2A; value = 2.84
Change = F9A; value = 0.456
Change = P1A; value = 2.24
Change = R5K; value = 0.947
Change = L7A; value = -0.0936

Block 2 — target: CEP164, C-terminal peptide (human); method: DHFR complementation, deep sequencing; medium: yeast; baseline: wild type; direction: higher = weaker binding; endpoint: binding free energy change
Notes: single substitutions, model-inferred values
Parent: PDZK1, PDZ domain 2 (human); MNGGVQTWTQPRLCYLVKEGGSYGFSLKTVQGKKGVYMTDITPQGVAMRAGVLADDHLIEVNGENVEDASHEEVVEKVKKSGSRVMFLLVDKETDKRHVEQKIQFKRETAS; partner HNRVKVYRF
Change = V66I; value = -0.291 kcal/mol
Change = V75D; value = 2.64 kcal/mol
Change = E60K; value = 0.38 kcal/mol
Change = V36F; value = 0.895 kcal/mol
Change = S111D; value = -0.0874 kcal/mol
Change = L88M; value = -0.108 kcal/mol
Change = S81V; value = 0.95 kcal/mol
Change = L27W; value = 0.563 kcal/mol
Change = M1T; value = -0.121 kcal/mol
Change = Q101S; value = -0.0615 kcal/mol
Change = G82P; value = 0.285 kcal/mol
Change = T9N; value = -0.0746 kcal/mol
Change = I103M; value = -0.105 kcal/mol
Change = K77S; value = 0.219 kcal/mol
Change = H57F; value = 0.0973 kcal/mol
Change = P43W; value = 0.111 kcal/mol
Change = V52P; value = 1.04 kcal/mol
Change = L88I; value = 0.704 kcal/mol
Change = W8H; value = -0.283 kcal/mol
Change = K34G; value = 0.326 kcal/mol
Change = T39Q; value = 0.954 kcal/mol
Change = Q101N; value = -0.123 kcal/mol
Change = M48F; value = -0.185 kcal/mol

Block 3 — method: protein-binding microarray; form: double-stranded DNA, one strand shown; medium: in vitro; concentration: 2200 nM top; notes: 60-bp whole probe; with: salmon DNA 0.4 mg/ml; baseline: random background probes; direction: higher = stronger binding; endpoint: fitted relative affinity; constant ends, left off below: GCCTAGCAC … GTCTTGATTCGCTTGACGCTGCTG
Target: Interferon regulatory factor 7, full length, phosphomimetic (IRF7, Homo sapiens, UniProt Q92985, residues 1-503, S471D/S472D/S475D/S476D/S477D/S483D/S484D/S487D)
Construct (chain): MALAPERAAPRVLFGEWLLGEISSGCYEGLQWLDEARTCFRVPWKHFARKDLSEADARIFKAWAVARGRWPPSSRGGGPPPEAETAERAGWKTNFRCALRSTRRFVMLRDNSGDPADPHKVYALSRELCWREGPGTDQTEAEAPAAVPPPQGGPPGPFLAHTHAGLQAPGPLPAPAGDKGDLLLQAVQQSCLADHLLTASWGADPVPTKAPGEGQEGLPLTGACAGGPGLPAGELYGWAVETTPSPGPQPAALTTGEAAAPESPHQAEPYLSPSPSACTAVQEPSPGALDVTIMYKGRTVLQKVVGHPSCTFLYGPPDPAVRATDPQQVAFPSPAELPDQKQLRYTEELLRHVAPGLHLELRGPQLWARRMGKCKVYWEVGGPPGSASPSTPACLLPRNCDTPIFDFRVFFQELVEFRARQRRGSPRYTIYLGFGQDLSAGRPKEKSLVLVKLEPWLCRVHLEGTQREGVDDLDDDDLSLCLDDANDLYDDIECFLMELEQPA
Sequence = GACGGACTGGACTTTCGGGATGTGCTA; value = 3.19 z-score
Sequence = GACGGACTGGACTTTTGGGACGTGCTA; value = -0.566 z-score
Sequence = GACGGTCTCTGTCTCGGGACGTGCTAG; value = 0.0446 z-score
Sequence = GACGGGCTGGGTATCGGGACGTGCTAG; value = -1.21 z-score
Sequence = TCATATATGCATGTAAAACTGTGCTAG; value = 0.559 z-score
Sequence = GACGGTATCGACACTGCGGACGTGCTA; value = 0.00469 z-score
Sequence = GACCGTCTCCTTCTCCTGACGTGCTAG; value = 1.44 z-score
Sequence = GACGGTTTCAGGTATCGGGACGTGCTA; value = 2.41 z-score
Sequence = GACGATATCGGGTTTCGGGACGTGCTA; value = 1.88 z-score
Sequence = TCAAGTTTCATTCCTGAACTGTGCTAG; value = 2.52 z-score
Sequence = TCAATTTCCACTTTGACACTGTGCTAG; value = 3.46 z-score
Sequence = GACGGTATCGCGACTGGGGACGTGCTA; value = -0.225 z-score
Sequence = ACAAGTTTCTCCTTTCGGAAGTGCTAG; value = 3.85 z-score
Sequence = TCAATTGGTTGAACATGACTGTGCTAG; value = 0.414 z-score
Sequence = TCATTTTTTTTTTCTGAACTGTGCTAG; value = 2.22 z-score
Sequence = GACGGTTCCGGTTTTGGGACGTGCTAG; value = 2.63 z-score
Sequence = TTAGGTTTCGACACTGGGTTTGTGCTA; value = 2.51 z-score
Sequence = TGAGGTATCGGACTGGGTTAGTGCTAG; value = -0.258 z-score
Sequence = TATTTTGGAAACTCACAACAGTGCTAG; value = 0.352 z-score
Sequence = TTAGGTTTCGACTTCCGGTTAGTGCTA; value = 8.38 z-score
Sequence = TCATGTCTTAGATTCCTACTGTGCTAG; value = 1.28 z-score
Sequence = CTTTTTATGCTTTCTTTAACTGTGCTA; value = 1.78 z-score
Sequence = TTAGGTTTAGGTATCGGTTAGTGCTAG; value = 0.759 z-score
Sequence = TTAGGTCTCCTTTTTCTTTAGTGCTAG; value = 1.04 z-score
Sequence = TCATATTTAAGACCTATGACTGTGCTA; value = 0.202 z-score

Block 4 — method: protein-binding microarray; form: double-stranded DNA, one strand shown; medium: in vitro; concentration: not given; direction: higher = stronger binding; endpoint: E-score
Target: Cyclic AMP-dependent transcription factor ATF-1 (ATF1, Homo sapiens, UniProt P18846, residues 1-271, full length assumed)
Notes: k-mer, scored over probes, only values ≥0.25
Construct (chain): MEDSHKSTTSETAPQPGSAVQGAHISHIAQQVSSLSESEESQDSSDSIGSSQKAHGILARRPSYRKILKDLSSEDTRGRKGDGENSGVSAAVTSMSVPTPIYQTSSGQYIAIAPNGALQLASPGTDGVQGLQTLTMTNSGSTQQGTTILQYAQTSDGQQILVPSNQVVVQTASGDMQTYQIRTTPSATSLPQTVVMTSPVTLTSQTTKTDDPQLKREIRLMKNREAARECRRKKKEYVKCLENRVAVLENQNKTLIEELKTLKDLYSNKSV
Sequence = AGACGTC; value = 0.299
Sequence = GACGCGA; value = 0.275
Sequence = AACTACG; value = 0.289
Sequence = CAACGTC; value = 0.388
Sequence = CCGCGTC; value = 0.299
Sequence = ACGATGA; value = 0.263
Sequence = AGATGAC; value = 0.331
Sequence = GACATCA; value = 0.291
Sequence = ACGACAT; value = 0.313
Sequence = CGTATAA; value = 0.262
Sequence = CTATGAC; value = 0.408
Sequence = AGCGTCA; value = 0.439
Sequence = CGTACGA; value = 0.256
Sequence = CGTAGTA; value = 0.266
Sequence = ATACACG; value = 0.255
Sequence = ACGTTAT; value = 0.347
Sequence = ACGTGCG; value = 0.319
Sequence = GCGTGTA; value = 0.28

Block 5 — method: universal PBM; form: double-stranded DNA, one strand shown; medium: in vitro; concentration: 600 nM; direction: higher = stronger binding; endpoint: E-score
Target: Sal-like protein 4, full length isoform A (SALL4, Homo sapiens, UniProt Q9UJQ4, residues 1-1053)
Sequence of UniProt Q9UJQ4 (whole entry, looked up): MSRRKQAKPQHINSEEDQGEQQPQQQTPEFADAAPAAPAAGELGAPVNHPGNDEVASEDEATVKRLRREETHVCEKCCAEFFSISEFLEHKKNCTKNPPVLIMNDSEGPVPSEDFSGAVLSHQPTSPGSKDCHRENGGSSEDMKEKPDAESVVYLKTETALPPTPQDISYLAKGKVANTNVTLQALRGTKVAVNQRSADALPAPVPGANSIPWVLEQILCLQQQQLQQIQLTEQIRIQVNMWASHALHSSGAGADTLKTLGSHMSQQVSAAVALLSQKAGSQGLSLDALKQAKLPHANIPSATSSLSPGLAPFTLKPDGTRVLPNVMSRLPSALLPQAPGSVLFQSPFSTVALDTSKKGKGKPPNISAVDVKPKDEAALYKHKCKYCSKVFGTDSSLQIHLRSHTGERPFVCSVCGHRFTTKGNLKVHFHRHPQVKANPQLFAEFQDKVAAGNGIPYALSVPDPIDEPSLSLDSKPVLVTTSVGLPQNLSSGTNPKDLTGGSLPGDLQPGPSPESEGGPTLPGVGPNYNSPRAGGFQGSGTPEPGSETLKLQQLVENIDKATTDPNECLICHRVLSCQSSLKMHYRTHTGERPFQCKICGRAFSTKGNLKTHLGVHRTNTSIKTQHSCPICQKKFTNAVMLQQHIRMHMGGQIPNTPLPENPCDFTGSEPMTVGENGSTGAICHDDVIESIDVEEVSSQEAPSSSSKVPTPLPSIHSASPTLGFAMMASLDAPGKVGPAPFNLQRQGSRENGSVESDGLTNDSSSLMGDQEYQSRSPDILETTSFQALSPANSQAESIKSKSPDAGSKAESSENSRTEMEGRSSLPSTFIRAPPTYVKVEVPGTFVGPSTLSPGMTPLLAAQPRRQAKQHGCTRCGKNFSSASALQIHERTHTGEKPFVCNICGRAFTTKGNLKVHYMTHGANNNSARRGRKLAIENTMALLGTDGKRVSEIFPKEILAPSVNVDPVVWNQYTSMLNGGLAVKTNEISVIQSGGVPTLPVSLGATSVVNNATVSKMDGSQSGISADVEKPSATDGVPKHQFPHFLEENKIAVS
Notes: 8-mer, flanks averaged, mean of replicates
Sequence = GACTCCTA; value = -0.188
Sequence = GGCGAGCA; value = -0.295
Sequence = CTTCGAAA; value = 0.0894
Sequence = AAGCAGCT; value = -0.0887
Sequence = ATTTCGCG; value = 0.105
Sequence = CTCGGATC; value = -0.175
Sequence = ACTGCCGG; value = -0.201
Sequence = AACAGGCA; value = 0.0139
Sequence = CGGCGCAG; value = -0.267
Sequence = GAATCATC; value = 0.148
Sequence = CTTCTTCC; value = -0.14
Sequence = ACGCATGG; value = -0.111
Sequence = ACTCGCCA; value = -0.0891
Sequence = AACCAGCC; value = -0.153
Sequence = GCGCCGCC; value = -0.399
Sequence = GGAGACTA; value = -0.0728
Sequence = TAACATAA; value = 0.356
Sequence = ACGCATAC; value = 0.0431
Sequence = GGCCCAGA; value = -0.303
Sequence = ACGTGATA; value = 0.128
Sequence = CACGCTGG; value = -0.269

Block 6 — method: DHFR PCA, deep sequencing; medium: yeast; with: (+)-ABA 0.0091 µM; baseline: wild-type fitted maximum; direction: higher = stronger binding; endpoint: relative binding score
Target: ABI1, truncated, D143A, DHFR fusion (Arabidopsis thaliana)
Notes: methotrexate growth selection, single substitutions
Parent: PYL1, truncated, DHFR fusion (Arabidopsis thaliana); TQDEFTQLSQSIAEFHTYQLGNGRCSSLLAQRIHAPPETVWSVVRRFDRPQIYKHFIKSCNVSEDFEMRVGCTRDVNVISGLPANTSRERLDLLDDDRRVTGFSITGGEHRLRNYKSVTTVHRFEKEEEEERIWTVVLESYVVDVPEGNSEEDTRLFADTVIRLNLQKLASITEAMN
Change = D153M; value = -1.8%
Change = V76G; value = 0.42%
Change = A84C; value = 35%
Change = S80N; value = 46.2%
Change = D97H; value = 20.3%
Change = V76W; value = -4.26%
Change = R90S; value = -1.81%
Change = E89Q; value = -4.22%
Change = I172S; value = -2.95%
Change = N22P; value = 63.1%
Change = V76C; value = 12.9%

Block 7 — method: protein binding microarray; form: double-stranded DNA, one strand shown; medium: in vitro; concentration: not given; baseline: not given; direction: higher = stronger binding; endpoint: E-score
Target: Histone acetyltransferase KAT6A, winged helix 2, GST fusion (KAT6A, Homo sapiens, UniProt Q92794, residues 85-181)
Notes: 8-mer, flanks averaged, mean of 2 arrays, mostly near background
Target sequence (chain): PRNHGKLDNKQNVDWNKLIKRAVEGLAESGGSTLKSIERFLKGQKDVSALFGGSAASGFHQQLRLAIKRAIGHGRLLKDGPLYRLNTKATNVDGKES
Sequence = CTCCGTGA; value = 0.157
Sequence = ACACTCGG; value = 0.0701
Sequence = GAGACTGC; value = -0.021
Sequence = CGACGACA; value = -0.12
Sequence = ATGAGTCA; value = -0.179
Sequence = AATAGTTG; value = -0.18
Sequence = GGTACGCA; value = 0.0172
Sequence = ACGCCAAA; value = -0.00378
Sequence = AGATACTA; value = -0.105
Sequence = ATTAAAAT; value = 0.197
Sequence = ATGGATCG; value = -0.0457
Sequence = GCTTCACC; value = 0.0729
Sequence = GCGTGGCC; value = 0.129
Sequence = CTCACCAC; value = 0.00915
Sequence = ACGTTGCC; value = -0.116
Sequence = CGTCCGGC; value = 0.196
Sequence = CAGTCATG; value = -0.164
Sequence = CGCGCCAA; value = 0.224
Sequence = ACTGACCG; value = -0.146
Sequence = GCTTTAGA; value = 0.0824
Sequence = CCTATGTC; value = -0.00106
Sequence = ATACCTAT; value = -0.0965
Sequence = GCAATAAA; value = 0.0486

Other studies, line by line
Substance = PhoQ, residues 284 288 289 292 302 303 GASLAW; target = PhoP, residues 12 14 15 18 19 TTLRV (Escherichia coli, UniProt P23836); assay = Sort-seq, measured: YFP reporter; test system = E. coli; setting = PhoQ-PhoP variant library, with: 10 µM Mg2+; scale = baseline: high Mg2+ state, higher = stronger signaling; endpoint = fold induction; value = 1.23

Excerpt of the above (block 4):
Sequence = AACTACG; value = 0.289
Sequence = CAACGTC; value = 0.388
Sequence = CCGCGTC; value = 0.299
Sequence = ACGATGA; value = 0.263
Sequence = AGATGAC; value = 0.331
Sequence = GACATCA; value = 0.291
Sequence = ACGACAT; value = 0.313
Sequence = CGTATAA; value = 0.262
Sequence = CTATGAC; value = 0.408
Sequence = AGCGTCA; value = 0.439
Sequence = CGTACGA; value = 0.256
Sequence = CGTAGTA; value = 0.266
Sequence = ATACACG; value = 0.255
Sequence = ACGTTAT; value = 0.347
Sequence = ACGTGCG; value = 0.319
